Assay results collected from several papers.
± gives the spread as reported.
IDE: Insulin-degrading enzyme (IDE, Homo sapiens, UniProt P14735)

`Cc1ccc(S(=N)(=O)c2ccccc2)cc1` (stereo not drawn) gave a metabolic stability of 45% (human liver microsomes; relative to: hepatic blood flow).
`CCCCC[C@H](O)CC[C@@H]1[C@H]2Cc3cccc(OCC(=O)O)c3C[C@H]2C[C@H]1O` — result for “geometric mean Cmax”: 0.6 ng/mL (LC-MS/MS; Japanese PAH patients, plasma; inhaled, 54 µg, no background PAH therapy).
Under “drug-related TEAE incidence”, `C[C@@H](c1ncncc1F)[C@](O)(Cn1cncn1)c1ccc(F)cc1F` is recorded as 0% (item: blurred vision; human; oral, 400 mg).
For `Nc1ncnc2c1ncn2[C@H]1C[C@@H]2OP(=O)(O)OC[C@H]3O[C@@H](n4cnc5c(N)ncnc54)C[C@@H]3OP(=O)(O)OC[C@H]2O1`, the monocyte percentage was 2.18 ± 0.94% (non-tumor-bearing mice, blood; intravenous, 1 mg/kg, toxicity study).
`Nc1ncnc2c1c(Oc1cc(C(F)(F)F)ccn1)nn2[C@@H]1CCCC[C@H]1O`: metabolic stability “stable” (dog liver microsomes).
Under “pre-dose plasma concentration”, `N#Cc1ccc2c(c1)[C@H]1CCCN(C(=O)c3ccc4[nH]cnc4c3)[C@H]1C2` is recorded as 2550 nmol/L (human, plasma; 240 mg once daily, day 2).
For `CN1C[C@H](COc2nccc3c(NCc4ccco4)cc(Cl)nc23)OC1=O`, “left ventricular end-diastolic pressure” read 6 mmHg (rabbit NZW female, isolated Langendorff heart; 3 µM, 15 min).
`O=C(Nc1ccc(OC(F)(F)Cl)cc1)c1cnc(N2CC[C@@H](O)C2)c(-c2ccn[nH]2)c1`: “any-grade event rate” 32.6% (per laboratory record, item: triglyceride increase; human patients; oral, dose not given, dose-finding study).
For `CCn1cc(C(=O)N2CCOCC2)c(=O)c2cc(NC3Cc4ccccc4C3)cnc21`, the CL/F was 33.3 L/h (human male, fed, plasma; oral, 900 mg twice daily, day 1, tablet, arithmetic mean).
`Cc1ccc([C@@H]2O[C@H](CO)[C@@H](O)[C@H](O)[C@H]2O)cc1Cc1ccc(-c2ccc(F)cc2)s1` — result for “urinary calcium excretion change”: -31.1 mg (Japanese type 2 diabetes patients; 100 mg, day 6, 24 h urine collection; relative to: baseline).
`Cc1c(Cl)c(C)[n+]([O-])c(Cl)c1-c1noc(-c2cc(O)c(O)c([N+](=O)[O-])c2)n1`: “adverse drug reaction incidence” 0% (item: Hyperhidrosis; healthy Caucasian subjects; oral, 50 mg, 20 days).
`Cc1cc(NC2CCN(C(=O)OC3CCN(C(=O)/C=C/CN(C)C)C3)CC2)n2ncc(C(C)C)c2n1` (stereo not drawn): “patients with adverse event” 9% (Phase I dose escalation CTCAE v4.0, item: Dizziness; patients with advanced solid tumours; dose not given, TIW dosing any grade).
For `Cc1ccccc1-c1ccc([C@@H]2[C@@H](CO)N3CCCCN(C(=O)c4cccnc4)C[C@@H]23)cc1`, the EC50 was 13 µM (IDE; enzyme activity, inhibitor, fluorogenic kinetic; added: Mca-RPPGFSAFK(Dnp)-OH substrate).
`Cc1nc2cccc(OCC(C)(C)C(=O)NC(C)C)c2c(N)c1C(=O)O`: “micronucleated NCE per 2000 PCE” 0.9 (male Swiss albino CD-1 mouse, bone marrow; oral, 1000 mg/kg, 36 h).
`CCN1/C(=C/C(C)=O)Sc2ccc(F)cc21` — result for “mean blood pressure”: 87 ± 2 mmHg (cynomolgus monkey; oral, 30 mg/kg, 24 h post-dose).
`CCC(C)(C)C1CCc2[nH]c3ccccc3c(=O)c2C1` (stereo not drawn) has an IC50 of 0.341 ± 0.028 µM (Plasmodium yoelii; 17XL; 384-well).
`Cc1ccc(N(C)C(=O)/C=C/c2ccco2)cc1` gave a licking latency of 19.1 ± 0.5 s (cold plate test; mice; oral, 30 mg/kg single, 15 min).
`COC(=O)c1ccc(N2CCN(C)CC2)c(NC(=O)c2cccc(OC)c2)c1` gave a viability of 95.1% (HBL-1; 1 µM, 120 h).
For `Cc1cccc(-c2ccc([C@@H]3[C@@H](CO)N4CCCCN(S(=O)(=O)c5cn(C)cn5)C[C@@H]34)cc2)c1`, the EC50 was 0.85 µM (IDE; enzyme activity, inhibitor, fluorogenic kinetic; added: Mca-RPPGFSAFK(Dnp)-OH substrate).
Under “median ACTH level”, `N#Cc1ccc2c(c1)[C@H]1CCCN(C(=O)c3ccc4[nH]cnc4c3)[C@H]1C2` is recorded as 5.8 pmol/L (human; 240 mg, end of trial).
`Nc1ncnc2c1ncn2[C@@H]1O[C@H](C[C@@H](N)CC[C@H](N)C(=O)O)[C@@H](O)[C@H]1O` gave a viability of 102% (HBL-1; 1 µM, 120 h).
`Cc1ccn2cc(-c3ccccn3)nc2c1` has a CC50 of greater than 63.1 µM (peritoneal macrophages, Swiss mice; 5 days, 5% fetal calf serum).
`COc1ccnc(C(N)=O)c1O` gave a DT50 of 23.7 days (aerobic dark soil incubation; clay soil; 20 °C, persistence endpoint).
`O=C(Nc1nc2cccc(-c3ccc(CN4CCS(=O)(=O)CC4)cc3)n2n1)C1CC1` — result for “slower absorption mixture fraction”: 0.807 (population PK model; human; oral, SIR median).

A few entries again:
Under “pre-dose plasma concentration”, `N#Cc1ccc2c(c1)[C@H]1CCCN(C(=O)c3ccc4[nH]cnc4c3)[C@H]1C2` is recorded as 2550 nmol/L (human, plasma; 240 mg once daily, day 2).
`COc1ccnc(C(N)=O)c1O` gave a DT50 of 23.7 days (aerobic dark soil incubation; clay soil; 20 °C, persistence endpoint).
`Cc1ccc(S(=N)(=O)c2ccccc2)cc1` (stereo not drawn) gave a metabolic stability of 45% (human liver microsomes; relative to: hepatic blood flow).
`Cc1nc2cccc(OCC(C)(C)C(=O)NC(C)C)c2c(N)c1C(=O)O`: “micronucleated NCE per 2000 PCE” 0.9 (male Swiss albino CD-1 mouse, bone marrow; oral, 1000 mg/kg, 36 h).
